Results pooled from the literature.
Parts stem from different laboratories: compare values within a part only.
Sequence of UniProt P11802 (whole entry, looked up): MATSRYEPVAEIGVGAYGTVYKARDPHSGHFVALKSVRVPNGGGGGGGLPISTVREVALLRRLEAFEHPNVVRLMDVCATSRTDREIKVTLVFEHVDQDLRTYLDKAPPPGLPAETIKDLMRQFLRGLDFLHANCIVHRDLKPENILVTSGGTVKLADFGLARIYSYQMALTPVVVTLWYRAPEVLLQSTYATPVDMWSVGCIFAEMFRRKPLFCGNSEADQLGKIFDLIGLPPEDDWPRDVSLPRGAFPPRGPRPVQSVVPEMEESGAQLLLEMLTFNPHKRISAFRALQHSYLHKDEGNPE
Sequence of UniProt O95835 (whole entry, looked up): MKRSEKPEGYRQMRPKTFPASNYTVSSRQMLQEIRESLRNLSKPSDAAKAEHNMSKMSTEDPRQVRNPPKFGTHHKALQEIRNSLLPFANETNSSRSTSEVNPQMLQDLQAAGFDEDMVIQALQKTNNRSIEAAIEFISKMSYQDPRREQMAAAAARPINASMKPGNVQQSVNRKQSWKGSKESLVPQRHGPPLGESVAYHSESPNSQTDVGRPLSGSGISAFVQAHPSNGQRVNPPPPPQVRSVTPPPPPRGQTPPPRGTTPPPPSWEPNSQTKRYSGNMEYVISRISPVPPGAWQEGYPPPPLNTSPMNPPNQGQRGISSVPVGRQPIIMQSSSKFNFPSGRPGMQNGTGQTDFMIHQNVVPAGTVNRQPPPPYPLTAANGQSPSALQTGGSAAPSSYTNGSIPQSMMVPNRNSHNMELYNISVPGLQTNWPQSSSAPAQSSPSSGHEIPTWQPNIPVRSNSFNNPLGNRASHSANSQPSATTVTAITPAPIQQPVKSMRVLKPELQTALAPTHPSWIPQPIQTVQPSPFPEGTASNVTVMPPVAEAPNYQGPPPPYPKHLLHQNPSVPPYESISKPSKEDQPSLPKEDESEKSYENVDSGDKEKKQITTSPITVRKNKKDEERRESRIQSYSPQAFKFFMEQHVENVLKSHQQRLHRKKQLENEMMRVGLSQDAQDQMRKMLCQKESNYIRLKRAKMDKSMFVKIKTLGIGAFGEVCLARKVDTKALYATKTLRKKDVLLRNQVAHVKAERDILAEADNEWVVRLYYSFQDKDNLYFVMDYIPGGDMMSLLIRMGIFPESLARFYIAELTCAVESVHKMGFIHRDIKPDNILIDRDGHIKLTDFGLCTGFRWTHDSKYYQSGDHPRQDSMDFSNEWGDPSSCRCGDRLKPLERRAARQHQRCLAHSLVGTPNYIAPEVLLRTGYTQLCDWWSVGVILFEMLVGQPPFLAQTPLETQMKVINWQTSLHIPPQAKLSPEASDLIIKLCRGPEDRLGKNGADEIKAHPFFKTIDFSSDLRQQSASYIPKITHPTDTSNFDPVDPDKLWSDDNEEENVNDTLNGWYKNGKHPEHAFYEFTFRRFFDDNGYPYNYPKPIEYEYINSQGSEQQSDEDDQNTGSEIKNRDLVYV
Sequence of UniProt O43353 (whole entry, looked up): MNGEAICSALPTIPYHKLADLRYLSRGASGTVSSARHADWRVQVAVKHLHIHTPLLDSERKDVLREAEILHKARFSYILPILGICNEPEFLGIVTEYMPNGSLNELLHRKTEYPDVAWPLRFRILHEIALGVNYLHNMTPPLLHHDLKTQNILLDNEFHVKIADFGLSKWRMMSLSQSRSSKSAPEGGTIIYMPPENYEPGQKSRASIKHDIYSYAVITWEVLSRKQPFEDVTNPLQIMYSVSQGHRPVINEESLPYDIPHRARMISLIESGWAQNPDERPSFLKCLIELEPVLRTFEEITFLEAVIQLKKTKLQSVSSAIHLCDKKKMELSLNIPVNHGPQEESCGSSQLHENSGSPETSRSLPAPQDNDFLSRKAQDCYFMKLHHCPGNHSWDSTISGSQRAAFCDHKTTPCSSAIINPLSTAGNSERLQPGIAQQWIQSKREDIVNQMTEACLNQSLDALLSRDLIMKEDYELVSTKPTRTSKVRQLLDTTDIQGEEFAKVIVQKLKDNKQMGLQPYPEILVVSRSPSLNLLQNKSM
Sequence of UniProt P48729 (whole entry, looked up): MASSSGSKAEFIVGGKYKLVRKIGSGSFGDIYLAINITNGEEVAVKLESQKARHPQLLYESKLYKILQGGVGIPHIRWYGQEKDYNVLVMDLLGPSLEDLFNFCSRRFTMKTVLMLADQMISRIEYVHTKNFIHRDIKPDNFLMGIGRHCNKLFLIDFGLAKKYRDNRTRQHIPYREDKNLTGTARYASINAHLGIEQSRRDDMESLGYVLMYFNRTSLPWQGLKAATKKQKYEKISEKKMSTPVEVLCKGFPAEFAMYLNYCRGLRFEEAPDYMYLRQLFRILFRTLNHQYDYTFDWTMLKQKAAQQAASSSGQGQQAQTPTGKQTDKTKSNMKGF
Sequence of UniProt P50750 (whole entry, looked up): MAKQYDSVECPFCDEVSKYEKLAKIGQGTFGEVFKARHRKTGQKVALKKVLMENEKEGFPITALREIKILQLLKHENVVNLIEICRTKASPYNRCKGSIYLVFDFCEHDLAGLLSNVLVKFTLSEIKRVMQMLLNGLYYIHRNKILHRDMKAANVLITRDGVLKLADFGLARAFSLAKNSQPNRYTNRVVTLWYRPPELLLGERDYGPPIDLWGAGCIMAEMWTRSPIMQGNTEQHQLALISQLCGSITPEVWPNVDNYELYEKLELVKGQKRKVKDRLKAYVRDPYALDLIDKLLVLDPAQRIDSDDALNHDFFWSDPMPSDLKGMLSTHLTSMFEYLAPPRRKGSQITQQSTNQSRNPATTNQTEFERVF
Sequence of UniProt P42336 (whole entry, looked up): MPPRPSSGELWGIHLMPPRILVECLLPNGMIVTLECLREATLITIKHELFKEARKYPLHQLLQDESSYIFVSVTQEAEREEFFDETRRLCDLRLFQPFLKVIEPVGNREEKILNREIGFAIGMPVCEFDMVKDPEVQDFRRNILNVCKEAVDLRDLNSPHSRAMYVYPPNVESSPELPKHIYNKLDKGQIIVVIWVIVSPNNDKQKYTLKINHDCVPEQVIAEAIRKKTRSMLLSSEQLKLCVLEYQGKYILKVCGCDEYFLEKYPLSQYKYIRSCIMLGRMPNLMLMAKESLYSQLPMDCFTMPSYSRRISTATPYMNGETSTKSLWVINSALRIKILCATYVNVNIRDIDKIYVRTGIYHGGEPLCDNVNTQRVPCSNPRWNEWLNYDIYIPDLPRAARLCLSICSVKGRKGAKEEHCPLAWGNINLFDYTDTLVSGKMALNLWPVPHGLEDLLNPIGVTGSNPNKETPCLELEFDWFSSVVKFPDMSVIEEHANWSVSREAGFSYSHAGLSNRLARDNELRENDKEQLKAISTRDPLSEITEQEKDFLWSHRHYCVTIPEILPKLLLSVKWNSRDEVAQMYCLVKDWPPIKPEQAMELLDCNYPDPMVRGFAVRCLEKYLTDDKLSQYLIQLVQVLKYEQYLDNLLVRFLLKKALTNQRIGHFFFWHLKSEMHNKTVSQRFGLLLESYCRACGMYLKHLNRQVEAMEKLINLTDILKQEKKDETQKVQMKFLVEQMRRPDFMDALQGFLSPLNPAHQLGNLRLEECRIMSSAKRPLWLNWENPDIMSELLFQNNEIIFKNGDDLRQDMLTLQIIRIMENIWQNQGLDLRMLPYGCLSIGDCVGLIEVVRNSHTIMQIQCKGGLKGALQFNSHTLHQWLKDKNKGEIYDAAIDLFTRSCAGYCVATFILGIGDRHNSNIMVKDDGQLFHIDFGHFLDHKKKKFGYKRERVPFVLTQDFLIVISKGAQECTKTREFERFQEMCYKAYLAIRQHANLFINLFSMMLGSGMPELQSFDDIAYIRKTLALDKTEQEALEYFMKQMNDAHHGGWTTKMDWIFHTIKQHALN

Series 1 — effect on: binding; method: competition with immobilised ligand; concentration: 1 µM
Compound: [2H]c1c([2H])c([C@]2([2H])CCCN2C(=O)C(C)(C)Oc2ccc3cn[nH]c3c2)c([2H])c([2H])c1C([2H])([2H])[2H]
| target | remaining binding |
| --- | --- |
| CDK9 (Homo sapiens, UniProt P50750) | 83% |
| PAK4 (Homo sapiens, UniProt O96013) | 89% |
| LATS1 (Homo sapiens, UniProt O95835) | 65% |
| RIPK2 (Homo sapiens, UniProt O43353) | 61% |
| PDGFRA (Homo sapiens, UniProt P16234) | 100% |
| PIK3CA (Homo sapiens, UniProt P42336) | 67% |
| CSNK1A1 (Homo sapiens, UniProt P48729) | 82% |
| MARK3 (Homo sapiens, UniProt P27448) | 76% |

Further values, each from its own experiment
CA9: Carbonic anhydrase 9 (CA9, Homo sapiens, UniProt Q16790)
| SMILES | target | effect on | action | method | concentration | measurement | value |
| --- | --- | --- | --- | --- | --- | --- | --- |
| COc1cc(-c2cncc3c2CN(C)Cc2cc(N4CCNCC4)ccc2-3)cc(OC)c1OC | Cyclin-dependent kinase 4, with cyclin D3 (CDK4, Homo sapiens, UniProt P11802) | enzyme activity | inhibitor | – | 1 µM | remaining activity | 125% |
| C=CC(=O)N1CCC(COCC(=O)N2CCN(c3nc(-c4cnc(N)nc4C(F)F)nc(N4CCOC[C@@H]4C)n3)CC2)CC1 | Receptor-type tyrosine-protein kinase FLT3, autoinhibited (FLT3, Homo sapiens, UniProt P36888) | binding | – | competition with immobilised ligand | 1 µM | remaining binding | 92% |
| C1=C/COCc2cc(ccc2OCCN2CCCC2)Nc2nccc(n2)-c2cccc(c2)COC/1 | FLT3 (Homo sapiens, UniProt P36888, D835V) | binding | – | – | 0.1 µM | remaining binding | 0% |
| Cc1ccc(Nc2ccccc2C(=O)OCC(=O)Nc2ccc(S(N)(=O)=O)cc2)cc1 | CA9 | enzyme activity | inhibitor | – | – | IC50 | 0.077 µM |
| CCCCC(=O)Nc1ccc(-c2ccc3ncn(CCC)c(=O)c3c2)cn1 | FLT3 (Homo sapiens, UniProt P36888, N841I) | binding | – | competition with immobilised ligand | 0.5 µM | remaining binding | 100% |
| Cc1cc([C@@H](C)Nc2ccccc2C(=O)O)c2nc(N3CCC(F)(F)CC3)c(C#N)c(=O)n2c1 | SRC (Homo sapiens, UniProt P12931) | binding | – | competition with immobilised ligand | 1 µM | remaining binding | 97% |
| CNc1ncc2c(/C=C/C(=O)N3CCC(OC)CC3)nn(Cc3cccc(C(F)(F)F)c3)c2n1 | Cyclin-dependent kinase 4, with cyclin D1 (CDK4, Homo sapiens, UniProt P11802) | enzyme activity | inhibitor | radiometric | 1 µM | remaining activity | 96% |
| Cc1cnn(-c2ccc(S(N)(=O)=O)cc2NCc2ccc(C(=O)N3CCCCC3)cc2)c1 | CA9 | enzyme activity | inhibitor | – | – | IC50 | 24.6 µM |

For quick reference, copied from above (further values, each from its own experiment):
| SMILES | target | effect on | action | method | concentration | measurement | value |
| --- | --- | --- | --- | --- | --- | --- | --- |
| COc1cc(-c2cncc3c2CN(C)Cc2cc(N4CCNCC4)ccc2-3)cc(OC)c1OC | Cyclin-dependent kinase 4, with cyclin D3 (CDK4, Homo sapiens, UniProt P11802) | enzyme activity | inhibitor | – | 1 µM | remaining activity | 125% |
| C=CC(=O)N1CCC(COCC(=O)N2CCN(c3nc(-c4cnc(N)nc4C(F)F)nc(N4CCOC[C@@H]4C)n3)CC2)CC1 | Receptor-type tyrosine-protein kinase FLT3, autoinhibited (FLT3, Homo sapiens, UniProt P36888) | binding | – | competition with immobilised ligand | 1 µM | remaining binding | 92% |
